Measurements from different studies.
Compare with care: the assays were run in different laboratories. “And” joins repeats or separate records; there may be more than shown. ± gives the spread as reported.

CCc1cc(C(=O)NC)c2nccc(N3CCc4c(cc(Cn5ccnc5)cc4-c4cn(C)nc4C(F)(F)F)C3=O)c2c1 — blood Neut change (Sprague Dawley rats; oral, 100 mg/kg twice daily, 7 days; relative to: vehicle): -54.3%
O=C(O)CCC(=O)O.[2H]C([2H])([2H])Oc1cc(C)c2[nH]ccc2c1CN1CC[C@@H](C2CC2)C[C@H]1c1ccc(C(=O)O)cc1 — subjects with elevated ALT TEAE (multiple ascending dose; healthy Chinese subjects; 200 mg once daily): 0%
C=CC(=O)Nc1cc(Nc2nccc(-c3cn(C4CC4)c4ccccc34)n2)c(OC)cc1N(C)CCN(C)C — PDW (BALB/c nude mouse, LU0387 xenograft, blood; oral, 40 mg/kg): 7.74 ± 0.308 fL
C=CC(=O)NC1CCN(c2ncc3ncnc(Nc4ccc(Oc5ccc6c(c5)ncn6C)c(C)c4)c3n2)CC1 — patients with abnormal dreams (male patients; oral, dose not given, on-treatment adverse events): 0%
Cn1cnc2c1c(=O)[nH]c(=O)n2C — samples above LOQ (human, both sexes, plasma): 100%
Cc1cc(-c2nccc3c2ccn3CC(=O)Nc2ccc(-c3cnccn3)cn2)ccn1 — subjects with nasal discomfort (human; 20 mg once daily, multiple ascending dose): 0%
CN(C)c1cc(NC(=O)CNC(C)(C)C)c(O)c2c1C[C@H]1C[C@H]3[C@H](N(C)C)C(O)=C(C(N)=O)C(=O)[C@@]3(O)C(O)=C1C2=O — amount permeated (starch gel membrane permeability; Gram-negative envelope surrogate; 200 µM, 30 min, pH 7.4): 1.36 nmol
O=C1CC[C@H](Cc2ccc(OS(=O)(=O)O)c(O)c2)O1 — plasma concentration (human plasma; mean): 1400 nM
C[C@@H](N)C1CCN(S(=O)(=O)c2cccc3cnccc23)CC1 — duration of quantifiable plasma levels (healthy volunteers, fasted, plasma; oral, 25 mg): ≤ 2 h
N#Cc1ccc2c(c1)[C@H]1CCCN(C(=O)c3ccc4[nH]cnc4c3)[C@H]1C2 — ACTH level change (human; 40 mg, day 7; relative to: baseline): 1.1 pmol/L
C=CC(=O)NC1CCN(c2ncc3ncnc(Nc4ccc(Oc5ccc6c(c5)ncn6C)c(C)c4)c3n2)CC1 — participants with grade 2 presyncope (human, male; oral, 240 mg, treatment-emergent adverse event): 6.3%
COc1cc(CCC(=O)O)ccc1OS(=O)(=O)O — plasma concentration (human plasma; median): 257 nM
CCO[C@H]1CCN(Cc2c(OC)cc(C)c3[nH]ccc23)[C@H](c2ccc(C(=O)O)cc2)C1 — total Cmax (human moderate hepatic impairment, plasma; oral, 200 mg single dose, median): 3150 ng/mL
O=C1CCC(N2Cc3cc(CO)c(F)cc3C2=O)C(=O)N1 (stereo not drawn) — plasma concentration (cynomolgus monkey, male; oral, 0.3 mg/kg parent drug, 0.5 h): 0.29 ± 0.24 ng/mL
O=C1CC[C@H](N2Cc3cc(N4CCN(CC5CCN(c6ccc([C@@H]7c8ccc(O)cc8CC[C@@H]7c7ccccc7)cc6)CC5)CC4)ccc3C2=O)C(=O)N1 — participants with adverse event (refers to: Contusion; human; oral, 200 mg, with: dabigatran etexilate 75 mg): 8.3%
O=C(O)C1=CC(=C(c2ccc(O)c(C(=O)O)c2)c2ccc(O)c(C(=O)O)c2)C=CC1=O — serum C-reactive protein level (ELISA; mouse B16-F10 tumour-bearing, serum; dose not given; relative to: vehicle): decreased
Cc1c2oc3c(C)ccc(C(=O)N[C@@H]4C(=O)N[C@H](C(C)C)C(=O)N5CCC[C@H]5C(=O)N(C)CC(=O)N(C)[C@@H](C(C)C)C(=O)O[C@@H]4C)c3nc-2c(C(=O)N[C@@H]2C(=O)N[C@H](C(C)C)C(=O)N3CCC[C@H]3C(=O)N(C)CC(=O)N(C)[C@@H](C(C)C)C(=O)O[C@@H]2C)c(N)c1=O — minimum plasma concentration (LC-MS; children with cancer, plasma; dose not given, 24 h): 0.7 µg/L
Cc1ccc([C@@H]2O[C@H](CO)[C@@H](O)[C@H](O)[C@H]2O)cc1Cc1ccc(-c2ccc(F)cc2)s1 — urinary calcium excretion change (Japanese type 2 diabetes patients; 25 mg, day 1, 24 h urine collection; relative to: baseline): -19.9 mg
CC(C)c1nc(N(C)S(C)(=O)=O)nc(-c2ccc(F)cc2)c1/C=C/[C@@H](O)C[C@@H](O)CC(=O)O — peripheral volume of distribution (population pharmacokinetic model; people living with HIV; oral, dose not given): 1660 L
C[C@@H](O)[C@H]1C(=O)N2C(C(=O)O)=C(SCCN=CN)C[C@H]12 — amount permeated (starch gel membrane permeability; Gram-negative envelope surrogate; 200 µM, 30 min, pH 7.4): 2.22 nmol
COc1ccc2c3c([nH]c2c1)[C@H](CC(C)C)N1C(=O)[C@H](CC(=O)NC(C)C)NC(=O)[C@@H]1C3 — serum concentration (wild-type mouse, male, serum; oral, 100 mg/kg, 0.5 h): 43.3 µM and 32.9 µM and 24.6 µM
C[C@@H]1CCO[C@H]2Cn3cc(C(=O)NCc4ccc(F)cc4F)c(=O)c(O)c3C(=O)N12 — AUC(0-24) (human paediatric patients, weight sample C to under sample D kg, plasma; oral, 25 mg film-coated tablet, steady state, geometric mean, population PK post-hoc, N 26): 32500 ng·h/mL
COc1cccc(O)c1OS(=O)(=O)O — plasma concentration (human plasma; median): 1770 nM
O=C(COc1ccc(Cl)cc1)NC12CC(c3nnc([C@H]4C[C@@H](OC(F)(F)F)C4)o3)(C1)C2 — adverse event incidence (refers to: Myalgia; human; oral, dose not given, 14 days): 8.8%
COc1ccc([C@@H](O)c2cc(-c3ncnc4cc(N5CCOCC5)ccc34)c(F)cc2Cl)nn1 — tlag (healthy volunteers, plasma; oral, 100 mg, tablet, fed high-fat, median): 0.5 h
CO[C@H]1C[C@@H]2CC[C@@H](C)[C@@](O)(O2)C(=O)C(=O)N2CCCC[C@H]2C(=O)O[C@H]([C@H](C)C[C@@H]2CC[C@@H](OC(=O)NCCOCCOCCOCCOCCOCCOCCOCCOCCC(=O)N3CCc4cc(Cn5nc(-c6ccc7oc(N)nc7c6)c6c(N)ncnc65)ccc4C3)[C@H](OC)C2)C[C@@H](O)[C@H](C)/C=C(\C)[C@@H](O)[C@@H](OC)C(=O)[C@H](C)C[C@H](C)/C=C/C=C/C=C/1C — Cmax (human, plasma; intravenous, 12 mg, cycle 1 day 15, arithmetic mean): 752 ng/mL
CNC(=O)c1ccc(-c2cnc3ncc(Cc4ccc5ncccc5c4)n3n2)cc1F — patients with adverse event (refers to: Pruritus, all grades; cancer patients; oral, 600 mg twice daily, expansion cohort, any causality): 3%
Cc1cc(NC2CCN(C(=O)OC3CCN(C(=O)/C=C/CN(C)C)C3)CC2)n2ncc(C(C)C)c2n1 (stereo not drawn) — patients with adverse event (Phase I dose escalation CTCAE v4.0, refers to: platelet count decreased; patients with advanced solid tumours; dose not given, Total dosing any grade): 17%
CCn1cc(C(=O)O)c(=O)c2ccc(C)nc21 — amount permeated (starch gel membrane permeability; Gram-negative envelope surrogate; 200 µM, 10 min, pH 7.4): 1.24 nmol
C[C@H]1CN(C(=O)CC#N)[C@]12CCN(c1ncnc3[nH]ccc13)C2 — subjects with Arthralgia (healthy human; oral, 1.5 mg, single dose): 0%
CC1CCNc2c(C(=O)NC/C=C/S(C)(=O)=O)cccc21 (stereo not drawn) — serum AST (uninfected mouse, serum; 300 mg/kg): 107 U/L and 70 U/L
Cc1c(-c2ccc(N3CCc4cccc(C(=O)Nc5nc6ccccc6s5)c4C3)nc2C(=O)O)cnn1CC12CC3(C)CC(C)(C1)CC(OCCNCC[C@H](O)CO)(C3)C2 — mean arterial pressure change (beagle dog, male, anaesthetised; intravenous infusion, 0.01 mg/kg/min, 15 min; relative to: baseline): 0 mmHg
CC(C)(C(=O)N1CCOc2c(C#N)cncc2C1)C(F)F — subjects with adverse event (refers to: abdominal discomfort; human; oral, 20 mg twice daily, 14 days, multiple ascending dose): 0%
O=c1ccccc(C2CCCO2)c1O (stereo not drawn) — serum concentration (C57BL/6 mouse male, turpentine inflammation anemia, serum; 50 mg/kg/day, 3 h after last dose): 3 µM
O=C(Nc1cnccc1Cl)N1CCN(Cc2ccc3c(c2)OC(F)(F)O3)CC1 — t1/2 (healthy young men, plasma; oral, 10 mg once daily, day 10): 8.14 h
COc1cccc(-c2n[nH]c(SCc3ccccn3)n2)c1OC — AUC(0-last) ratio (Sprague-Dawley rat, plasma; oral, 100 mg/kg; relative to: female over male): 1.31
O=C(O)C=Cc1ccc(OS(=O)(=O)O)c(O)c1 — plasma concentration (human plasma; median): 114 nM
CCc1nc(C(N)=O)c(Nc2ccc(N3CCC(N4CCN(C)CC4)CC3)c(OC)c2)nc1NC1CCOCC1 — Cmax (Japanese patients, plasma; oral, 80 mg, cycle 0 day -2, single dose, median): 65.6 ng/mL
COc1ccc2[nH]c([S+]([O-])Cc3ncc(C)c(OC)c3C)nc2c1 (stereo not drawn) — R/S ratio (human male; oral, 5 mg, 2 h, baseline session): 0.7
O=c1oc2cc(O)ccc2c2ccc(O)cc12 — plasma concentration (human plasma; median): 57.7 nM
CO[C@H]1/C=C/O[C@@]2(C)Oc3c(C)c(O)c4c(O)c(c(/C=N/N5CCN(C)CC5)c(O)c4c3C2=O)NC(=O)/C(C)=C\C=C\[C@H](C)[C@H](O)[C@@H](C)[C@@H](O)[C@@H](C)[C@H](OC(C)=O)[C@@H]1C — amount permeated (starch gel membrane permeability; Gram-negative envelope surrogate; 200 µM, 60 min, pH 7.4): 2.22 nmol
COc1ccc([C@@H](O)c2cc(-c3ncnc4cc(N5CCOCC5)ccc34)c(F)cc2Cl)nn1 — radiation skin injury TEAE (locally advanced rectal cancer; oral, 100 mg, with: capecitabine and radiotherapy): 50%
